Assay results of several laboratories.
Compare with care: the assays were run in different laboratories. ± gives the spread as reported.
Cell line: HT-29

| SMILES | assay | setting | scale | quantity | value |
| --- | --- | --- | --- | --- | --- |
| COc1cccc(OC)c1-c1cc(C(=O)NC2(C(=O)O)C3CC4CC(C3)CC2C4)nn1-c1ccc(C(=O)NCCNC(=O)[C@H](CCCCNC(=O)[C@H](CC(C)C)NC(=O)C2OC2C(=O)O)NC(=O)CN2CCN(CC(=O)[O-])CCN(CC(=O)[O-])CCN(CC(=O)[O-])CC2)cc1C(C)C.[177Lu+3] (mixture of isomers) |  | concentration not given, 120 min | baseline: added activity | internalized fraction | 1.6 ± 0.11% |
| COc1cc(-n2cc3cc(F)cc(C(N)=O)c3n2)cc(Cl)c1C1CC(O)(CCO)CC2CCCC21 (stereo not shown) | cell growth or viability, MTT | 72 h |  | IC50 | 0.24 µM |
| COc1cccc(OC)c1-c1cc(C(=O)NC2(C(=O)O)C3CC4CC(C3)CC2C4)nn1-c1ccc(C(=O)N(C)CCOCCOCCN(C)C(=O)[C@H](CCCCNC(=O)[C@H](CC(C)C)NC(=O)C2OC2C(=O)O)NC(=O)CN2CCN(CC(=O)[O-])CCN(CC(=O)[O-])CCN(CC(=O)[O-])CC2)cc1C(C)C.[177Lu+3] (mixture of isomers) |  | 240 min, 4 h | baseline: added activity | internalized fraction | 1.18 ± 0.05% |
| COc1c(C)c(OS(=O)(=O)c2ccccc2)c(C)c2c1C(=O)CC(c1ccccc1)O2 (stereo not shown) | SRB |  | baseline: normal over HT-29 IC50 | selectivity index | > 1.1 |
| CCN(C(=O)c1cc(F)ccc1Oc1nncnc1N1CCC2(C1)CN([C@H](CCCN(C)CCOC)C(C)C)C2)C(C)C | cell growth or viability | 7 days |  | GI50 | > 10 µM |
| CC12CCCC(NS(=O)(=O)C3CC3)(C1)C1CC(C)(C)C1CC2 (stereo not shown) | cell growth or viability, CCK-8 | 50 µM |  | inhibition | 56.4% |
| COc1c(C)c(OS(=O)(=O)c2ccccc2)c(C)c(O)c1C(=O)/C=C/c1ccccc1 | SRB |  | baseline: normal over HT-29 IC50 | selectivity index | 1.09 |
| CC1CNCCN1C(=O)c1cn(C23CCCC(C)(CCC4C2CC4(C)C)C3)nn1 (stereo not shown) | cell growth or viability, CCK-8 | 50 µM |  | inhibition | 75.2% |
| O=C(Nc1nnc2c1c(-c1ccc(Cl)cc1)nc1sc(=Cc3ccco3)c(=O)n12)c1ccccc1 (mixture of isomers) | SRB | 10 µM, NCI60 single-dose screen, colon cancer | baseline: untreated | cell growth | 49.2% |
| CC(C)c1ccc(N(C)c2ccc3c(c2)OCC[C@H]3CNc2cnccc2C(=O)O)cc1 | apoptosis, measured: caspase-3/7 | 72 h | baseline: panobinostat | EC50 | 0.092 µM |
| COC(CC1C(C)=CCC2C1(C)CCC1C(C)(C)C(O)C(O)CC12C)C(N)C(=O)O (stereo not shown) | cell growth or viability, CCK-8 | 72 h |  | IC50 | > 10 µM |
| COc1c(C)c(O)c(C(=O)C=Cc2ccccc2)c(OC)c1C | SRB |  | baseline: normal over HT-29 IC50 | selectivity index | 1.29 |
| CN1CCC(S(=O)(=O)NC23CCCC(C)(CCC4C2CC4(C)C)C3)CC1 (stereo not shown) | cell growth or viability, CCK-8 | 10 µM |  | inhibition | 82.5% |
| COc1c(C)c(OC(=O)c2ccccc2)c(C)c(OC(=O)c2ccccc2)c1C(=O)/C=C/c1ccccc1 | SRB |  | baseline: normal over HT-29 IC50 | selectivity index | 0.75 |
| CNCCNC(=O)c1cn(C23CCCC(C)(CCC4C2CC4(C)C)C3)nn1 (stereo not shown) | cell growth or viability, CCK-8 | 10 µM |  | inhibition | 62.7% |
| CCCCCCCCCC(=O)Oc1c(C)c(OC)c2c(/C=C/c3ccccc3)c(CCCCCCCC)c(=O)oc2c1C | cell growth or viability, SRB | 72 h |  | IC50 | > 50 µM |
| CN(C12CCCC(C)(CCC3C1CC3(C)C)C2)S(=O)(=O)c1ccc(N)cc1 (stereo not shown) | cell growth or viability, CCK-8 | 50 µM |  | inhibition | 90.2% |
| CCCCCCCC(=O)Oc1c(C)c(OC)c2c(/C=C/c3ccccc3)c(CCCCCC)c(=O)oc2c1C | cell growth or viability, SRB | 72 h |  | IC50 | > 50 µM |
| C1=[N+]2CCCC[N+]3=Cc4ccc5[n]4[Au-]23[n]2c1ccc2-c1nc2ccccc2nc1-5.F[P-](F)(F)(F)(F)F | NCI60 five-dose screen |  |  | TGI | 4.45 -log M |

For quick reference, copied from above:
| SMILES | assay | setting | scale | quantity | value |
| --- | --- | --- | --- | --- | --- |
| CC(C)c1ccc(N(C)c2ccc3c(c2)OCC[C@H]3CNc2cnccc2C(=O)O)cc1 | apoptosis, measured: caspase-3/7 | 72 h | baseline: panobinostat | EC50 | 0.092 µM |
| CCN(C(=O)c1cc(F)ccc1Oc1nncnc1N1CCC2(C1)CN([C@H](CCCN(C)CCOC)C(C)C)C2)C(C)C | cell growth or viability | 7 days |  | GI50 | > 10 µM |
| O=C(Nc1nnc2c1c(-c1ccc(Cl)cc1)nc1sc(=Cc3ccco3)c(=O)n12)c1ccccc1 (mixture of isomers) | SRB | 10 µM, NCI60 single-dose screen, colon cancer | baseline: untreated | cell growth | 49.2% |
